Measurements of several laboratories.
Each line is one published result; not all experiments were run side by side.
Organism: Acinetobacter baumannii

Structure (SMILES) | assay | test system | conditions | scale | MIC
CC[C@H](C)[C@H](NC(=O)[C@H](CC(C)C)NC(=O)[C@H](CCCNC(=N)N)NC(=O)[C@@H](N)CCCNC(=N)N)C(=O)N[C@@H](CCCNC(=N)N)C(=O)N[C@@H](CCCCN)C(=O)N[C@@H](CC(C)C)C(=O)N[C@@H](CCCCN)C(=O)NCC(=O)N1CCC[C@H]1C(=O)N[C@@H](CCCCN)C(=O)N[C@H](C(=O)N[C@@H](Cc1ccc(O)cc1)C(=O)N[C@@H](CC(C)C)C(=O)N[C@@H](Cc1ccc(O)cc1)C(=O)N[C@@H](Cc1ccccc1)C(=O)N[C@@H](CCCCN)C(=O)N[C@@H](CC(C)C)C(=O)N[C@@H](CCC(N)=O)C(=O)N[C@@H](CC(C)C)C(=O)N[C@@H](CC(C)C)C(=O)N[C@@H](CCCCN)C(=O)N[C@@H](CCCCN)C(N)=O)[C@@H](C)CC |  | ATCC BAA1605, Mueller-Hinton broth | 24 h |  | 8 µM
CN1C(=O)Cc2ccc(F)c(CCNC[C@H]3CN(c4ccc5c(n4)NC(=O)CO5)C(=O)O3)c21 |  | ATCC 19606 |  |  | 0.03 µg/mL
CC[C@H](C)[C@H](NC(=O)CNC(=O)[C@H](CC(=O)O)NC(=O)[C@H](CCCNC(=N)N)NC(=O)[C@@H](NC(=O)[C@H](CC(N)=O)NC(=O)[C@H](CCCNC(=N)N)NC(=O)CNC(=O)[C@@H](NC(=O)[C@H](CCCCN)NC(=O)[C@H](CCC(=O)O)NC(=O)[C@@H](NC(=O)[C@H](CCCCN)NC(=O)[C@H](CCCCN)NC(=O)[C@H](Cc1ccccc1)NC(=O)[C@@H](NC(=O)[C@H](CCCCN)NC(=O)[C@H](Cc1c[nH]c2ccccc12)NC(=O)[C@@H](N)CCCNC(=N)N)[C@@H](C)CC)[C@@H](C)CC)C(C)C)C(C)C)C(=O)N[C@H](C(=O)N[C@@H](CCCCN)C(=O)N[C@@H](C)C(=O)NCC(=O)N1CCC[C@H]1C(=O)N[C@@H](C)C(=O)N[C@H](C(=O)N[C@@H](C)C(=O)N[C@H](C(=O)N[C@H](C(=O)NCC(=O)N[C@@H](CCC(N)=O)C(=O)N[C@@H](C)C(=O)N[C@@H](C)C(=O)N[C@H](C(=O)N[C@@H](C)C(=O)N[C@@H](C)C(=O)N[C@@H](CCCCN)C(N)=O)[C@@H](C)O)C(C)C)C(C)C)C(C)C)[C@@H](C)CC |  | KCCM 40203, Mueller-Hinton broth | 16 h, 37 °C | growth inhibition over 99% | 2 µM
CC[C@H](C)[C@H](NC(=O)[C@H](CCCCN)NC(=O)[C@H](CCCCN)NC(=O)[C@H](Cc1ccccc1)NC(=O)[C@@H](NC(=O)[C@@H](NC(=O)[C@H](CCCNC(=N)N)NC(=O)[C@H](Cc1ccccc1)NC(=O)[C@@H](NC(=O)[C@H](CCCCN)NC(=O)[C@H](CCCCN)NC(=O)[C@@H](N)CCSC)[C@@H](C)CC)C(C)C)[C@@H](C)CC)C(=O)N[C@@H](CC(C)C)C(=O)N[C@@H](CCCCN)C(=O)N[C@@H](CCCNC(=N)N)C(=O)N[C@@H](CC(C)C)C(=O)N[C@H](C(=O)N[C@H](C(=O)O)C(C)C)[C@@H](C)CC |  | ATCC 19606 | 16 to 18 h |  | 8 µg/mL
CC[C@H](C)[C@H](NC(=O)CNC(=O)[C@H](CC(=O)O)NC(=O)[C@H](C)NC(=O)[C@@H](NC(=O)[C@H](CC(N)=O)NC(=O)[C@H](CCCNC(=N)N)NC(=O)CNC(=O)[C@@H](NC(=O)[C@H](CCCCN)NC(=O)[C@H](CCC(=O)O)NC(=O)[C@@H](NC(=O)[C@H](CCCCN)NC(=O)[C@H](CCCCN)NC(=O)[C@H](Cc1ccccc1)NC(=O)[C@@H](NC(=O)[C@H](CCCCN)NC(=O)[C@H](Cc1c[nH]c2ccccc12)NC(=O)[C@@H](N)CCCNC(=N)N)[C@@H](C)CC)[C@@H](C)CC)C(C)C)C(C)C)C(=O)N[C@H](C(=O)N[C@@H](CCCCN)C(=O)N[C@@H](C)C(=O)NCC(=O)N1CCC[C@H]1C(=O)N[C@@H](C)C(=O)N[C@H](C(=O)N[C@@H](C)C(=O)N[C@H](C(=O)N[C@H](C(=O)NCC(=O)N[C@@H](CCC(N)=O)C(=O)N[C@@H](C)C(=O)N[C@@H](C)C(=O)N[C@H](C(=O)N[C@H](C(=O)N[C@H](C(=O)N[C@@H](CCCCN)C(N)=O)C(C)C)C(C)C)[C@@H](C)O)C(C)C)C(C)C)C(C)C)[C@@H](C)CC |  | KCCM 40203, Mueller-Hinton broth | 16 h, 37 °C | growth inhibition over 99% | 4 µM
CC[C@H](C)[C@H](NC(=O)[C@H](CC(C)C)NC(=O)[C@@H](NC(=O)[C@H](CCCNC(=N)N)NC(=O)[C@H](CCCNC(=N)N)NC(=O)[C@H](CCCNC(=N)N)NC(=O)[C@@H](N)CCCNC(=N)N)[C@@H](C)CC)C(=O)N[C@@H](CCCNC(=N)N)C(=O)N[C@@H](CCCNC(=N)N)C(=O)N[C@H](C(=O)N[C@@H](CC(C)C)C(=O)N[C@@H](CCCNC(=N)N)C(=O)N[C@@H](CC(C)C)C(=O)N[C@@H](CCCNC(=N)N)C(=O)N[C@@H](CO)C(=O)N[C@@H](CO)C(=O)N[C@@H](C)C(=O)N[C@@H](Cc1ccc(O)cc1)C(N)=O)C(C)C | broth microdilution | ATCC 17978 | highest value reported |  | 16 µM
C[C@@H](O)[C@H]1C(=O)N2C(C(=O)O)=C(SCCN=CN)C[C@H]12 |  | CCARM 12006 carbapenem-resistant, Mueller-Hinton broth | 16 h, 37 °C |  | 128 µM
CC[C@H](C)[C@H](NC(=O)[C@H](CC(C)C)NC(=O)[C@H](CCCNC(=N)N)NC(=O)[C@@H](N)CCCNC(=N)N)C(=O)N[C@@H](CC(C)C)C(=O)N[C@H](C(=O)N[C@@H](CCCCN)C(=O)N[C@H](C(=O)NCC(=O)N1CCC[C@H]1C(=O)N[C@H](C(=O)N[C@H](C(=O)N[C@@H](Cc1ccc(O)cc1)C(=O)N[C@@H](CCCCN)C(=O)N[C@@H](Cc1ccc(O)cc1)C(=O)N[C@@H](Cc1ccccc1)C(=O)N[C@@H](CCCCN)C(=O)N[C@@H](CCCCN)C(=O)N[C@@H](CCC(N)=O)C(=O)N[C@@H](CC(C)C)C(=O)N[C@@H](CC(C)C)C(=O)N[C@@H](CCCCN)C(=O)N[C@@H](CC(C)C)C(N)=O)[C@@H](C)CC)[C@@H](C)CC)[C@@H](C)O)[C@@H](C)O |  | KCCM 40203, Mueller-Hinton broth | 24 h |  | 2 µM
CNC(C)C1CCC(N)C(OC2C(N)CC(N)C(OC3OCC(C)(O)C(NC)C3O)C2O)O1 (stereo not shown) |  | carbapenem-resistant clinical isolate |  |  | > 8 µg/mL
CC(=O)N[C@@H](CC(C)C)C(=O)N[C@@H](CC(C)C)C(=O)N[C@@H](CCCCN)C(=O)N[C@@H](CC(C)C)C(=O)N[C@@H](CC(C)C)C(=O)N[C@@H](CCCCN)C(=O)N[C@@H](CCCCN)C(=O)N1CCC[C@H]1C(=O)N[C@@H](CC(C)C)C(=O)N[C@@H](CCCCN)C(=O)N[C@@H](CC(C)C)C(=O)N[C@@H](CC(C)C)C(=O)N[C@@H](CCCCN)C(N)=O | broth microdilution | ATCC 17978 | 18 h, 37 °C, compound alone |  | > 80 µM

A few entries again:
Structure (SMILES) | assay | test system | conditions | scale | MIC
C[C@@H](O)[C@H]1C(=O)N2C(C(=O)O)=C(SCCN=CN)C[C@H]12 |  | CCARM 12006 carbapenem-resistant, Mueller-Hinton broth | 16 h, 37 °C |  | 128 µM
